Experimental data gathered from unrelated publications.
Protocols differ between the studies behind these lines. Values joined by “and” are separate records of one study, mostly repeats; a detail may differ.
Target: Interleukin-1 receptor-associated kinase 1 (IRAK1, Homo sapiens, UniProt P51617)

For C=C1C[C@]2(C(=O)OC)C=C(C(=O)Nc3cccc(C(=O)Nc4ccc(Nc5nccc(-c6cccnc6)n5)c(C)c4)c3)C(=O)[C@H]1C2, the remaining binding was 86% (binding, competition with immobilised ligand; 1 µM).
Nc1ncc2c(n1)-c1c([nH]c3ccc(C4=CCOCC4)cc13)CCC2 has a remaining binding of 90% (binding, competition with immobilised ligand; 1 µM).
C=CC(=O)N1Cc2nc(-c3cc(-c4cc(Cl)cnc4Cl)c(F)cc3F)n(-c3ccncn3)c2C1 gave an inhibition of -8.9% (cell-free assay, inhibitor; 1 µM).
With COc1c(Cl)cccc1Nc1c(-c2ccncc2C#C[C@@]2(C)CCCN2C(=O)/C=C/CN(C)C)[nH]c2c1C(=O)NCC2 the remaining binding was 85% (binding, competition with immobilised ligand; 3 µM).
NC(=O)C[C@H]1CCc2sc3ncnc(O[C@H]4CC[C@H](N5CCOCC5)CC4)c3c21 has an inhibition of 68% (enzyme activity, inhibitor; 10 µM).
C=CC(=O)N1CCc2ccc(-n3c(=O)ccc4cnc5ccc(-c6cnn(C)c6)cc5c43)cc21 has a remaining binding of 100% (KINOMEscan; 1 µM; baseline: DMSO control).
With CNC1C[S+]2CC[S+]3CC[S+](C1)[Ru-4]321([N]=C=S)[n]2c3ccc(OC)cc3c3c4c(c5cc(F)c[n+]1c5c32)C(=O)NC4=O (stereo not drawn) the remaining binding was 87% (KinomeScan; 0.1 µM; baseline: untreated).
The inhibition of C=CC(=O)Nc1cccc(-c2cnc3[nH]cc(C(=O)NC(C)(C)C)c3n2)c1 is reported as 3% and -8% (kinase activity; 0.1 µM).
The inhibition of CN1CC[C@@H](COc2cnc(C#N)cc2-c2ccn3nc(NC(=O)C4CC4)cc3c2)C1 is reported as 3% (enzyme activity, inhibitor; 1 µM).
For CNC(=O)C[C@H](Cc1ccc(C#N)cc1)NC(=O)c1cc(-c2ccc(CN[C@H](C)c3ccc(C)cc3)o2)ccc1Cl, “activity vs control” read 97% (enzyme activity, inhibitor; 1 µM).
For COc1cc(Nc2nccc(-c3cnn4nc(OC)ccc34)n2)cc(C(F)(F)F)c1, the remaining binding was 61% (binding, competition with immobilised ligand; 1 µM).
COc1ccc(NC(=O)Nc2ccc3c(c2)C(=O)N(C(C)CO)CC(C)C(CN(C)Cc2ccc4c(c2)OCO4)O3)cc1 (stereo not drawn) gave a remaining activity of 91% (kinase activity, KinaseProfiler; 0.03 µM, species human; baseline: control).
For COc1c(OCCCN2CCOCC2)ccc2c1N=C(NC(=O)c1cnc(N)nc1)N1CCN=C21, the remaining activity was 96% (kinase activity, inhibitor; 1 µM; baseline: untreated control).
For O=C(Nc1cc(-c2ccnc3[nH]ccc23)c(Cl)cn1)[C@H]1CCC[C@@H](NC(=O)C(F)(F)F)C1, the remaining binding was 34% (binding, competition with immobilised ligand; 0.1 µM).
Cc1cccc(O[C@H]2CCC[C@@H](C(C)CNCc3ccncc3)C2)c1 (relative stereo) gave an inhibition of -10% (enzyme activity, inhibitor; 10 µM).
The remaining activity of COC(=O)[C@@]1(C)C=C(C(=O)Nc2cccc(C(=O)Nc3ccc(Nc4nccc(-c5cccnc5)n4)c(C)c3)c2)C(=O)CC1 is reported as 85% (enzyme activity, inhibitor, radiometric; 1 µM).
COc1ccc(O)cc1-c1c[nH]c2ncc(-c3cncc(C(=O)N(C)C)c3)cc12 gave an inhibition of 6.66% (binding, competition with immobilised ligand; 0.2 µM).
With CC(C)=CC1OC(C)(C)C2C=C3C(=O)C(Cl)=CC(O)C3C3C(O)C4OC4C(=O)C132 (stereo not drawn) the remaining binding was 72% (cell-free assay, competition with immobilised ligand; 10 µM).

Some of these lines once more:
NC(=O)C[C@H]1CCc2sc3ncnc(O[C@H]4CC[C@H](N5CCOCC5)CC4)c3c21 has an inhibition of 68% (enzyme activity, inhibitor; 10 µM).
With CNC1C[S+]2CC[S+]3CC[S+](C1)[Ru-4]321([N]=C=S)[n]2c3ccc(OC)cc3c3c4c(c5cc(F)c[n+]1c5c32)C(=O)NC4=O (stereo not drawn) the remaining binding was 87% (KinomeScan; 0.1 µM; baseline: untreated).
